Published values collected from several papers.
Parts stem from different laboratories: compare values within a part only. Values joined by “and” are separate records of one study, mostly repeats; a detail may differ.
UniProt P42336, sequence (whole entry, unmodified, looked up): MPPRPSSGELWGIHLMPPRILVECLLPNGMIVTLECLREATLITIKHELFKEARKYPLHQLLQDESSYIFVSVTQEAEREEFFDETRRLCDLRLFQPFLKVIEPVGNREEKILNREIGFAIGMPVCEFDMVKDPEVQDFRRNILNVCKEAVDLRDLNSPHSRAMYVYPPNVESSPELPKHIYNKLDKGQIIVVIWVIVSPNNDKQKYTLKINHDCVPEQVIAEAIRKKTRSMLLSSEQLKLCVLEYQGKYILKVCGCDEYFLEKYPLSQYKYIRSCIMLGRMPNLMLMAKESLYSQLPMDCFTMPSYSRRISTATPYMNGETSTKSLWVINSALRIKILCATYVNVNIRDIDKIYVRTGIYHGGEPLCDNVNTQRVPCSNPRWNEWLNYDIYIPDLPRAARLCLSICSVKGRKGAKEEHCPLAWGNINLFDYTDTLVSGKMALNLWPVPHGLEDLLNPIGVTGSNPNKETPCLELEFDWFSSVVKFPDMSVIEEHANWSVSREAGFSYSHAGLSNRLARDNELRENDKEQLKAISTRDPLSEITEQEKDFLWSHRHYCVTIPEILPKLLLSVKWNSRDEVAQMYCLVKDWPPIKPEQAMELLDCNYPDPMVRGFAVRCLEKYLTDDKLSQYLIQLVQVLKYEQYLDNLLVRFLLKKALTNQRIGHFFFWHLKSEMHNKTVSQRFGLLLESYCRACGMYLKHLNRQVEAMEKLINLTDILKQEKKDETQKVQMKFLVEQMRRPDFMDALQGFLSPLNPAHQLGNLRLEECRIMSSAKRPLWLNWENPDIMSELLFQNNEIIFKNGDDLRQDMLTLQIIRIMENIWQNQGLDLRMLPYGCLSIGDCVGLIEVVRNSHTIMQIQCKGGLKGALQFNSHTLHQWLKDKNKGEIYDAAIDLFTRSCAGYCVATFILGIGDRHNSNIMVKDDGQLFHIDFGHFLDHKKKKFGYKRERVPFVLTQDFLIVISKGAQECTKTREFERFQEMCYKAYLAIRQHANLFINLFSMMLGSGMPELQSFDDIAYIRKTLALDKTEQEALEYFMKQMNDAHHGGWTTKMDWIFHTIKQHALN
UniProt P08069, sequence (whole entry, looked up): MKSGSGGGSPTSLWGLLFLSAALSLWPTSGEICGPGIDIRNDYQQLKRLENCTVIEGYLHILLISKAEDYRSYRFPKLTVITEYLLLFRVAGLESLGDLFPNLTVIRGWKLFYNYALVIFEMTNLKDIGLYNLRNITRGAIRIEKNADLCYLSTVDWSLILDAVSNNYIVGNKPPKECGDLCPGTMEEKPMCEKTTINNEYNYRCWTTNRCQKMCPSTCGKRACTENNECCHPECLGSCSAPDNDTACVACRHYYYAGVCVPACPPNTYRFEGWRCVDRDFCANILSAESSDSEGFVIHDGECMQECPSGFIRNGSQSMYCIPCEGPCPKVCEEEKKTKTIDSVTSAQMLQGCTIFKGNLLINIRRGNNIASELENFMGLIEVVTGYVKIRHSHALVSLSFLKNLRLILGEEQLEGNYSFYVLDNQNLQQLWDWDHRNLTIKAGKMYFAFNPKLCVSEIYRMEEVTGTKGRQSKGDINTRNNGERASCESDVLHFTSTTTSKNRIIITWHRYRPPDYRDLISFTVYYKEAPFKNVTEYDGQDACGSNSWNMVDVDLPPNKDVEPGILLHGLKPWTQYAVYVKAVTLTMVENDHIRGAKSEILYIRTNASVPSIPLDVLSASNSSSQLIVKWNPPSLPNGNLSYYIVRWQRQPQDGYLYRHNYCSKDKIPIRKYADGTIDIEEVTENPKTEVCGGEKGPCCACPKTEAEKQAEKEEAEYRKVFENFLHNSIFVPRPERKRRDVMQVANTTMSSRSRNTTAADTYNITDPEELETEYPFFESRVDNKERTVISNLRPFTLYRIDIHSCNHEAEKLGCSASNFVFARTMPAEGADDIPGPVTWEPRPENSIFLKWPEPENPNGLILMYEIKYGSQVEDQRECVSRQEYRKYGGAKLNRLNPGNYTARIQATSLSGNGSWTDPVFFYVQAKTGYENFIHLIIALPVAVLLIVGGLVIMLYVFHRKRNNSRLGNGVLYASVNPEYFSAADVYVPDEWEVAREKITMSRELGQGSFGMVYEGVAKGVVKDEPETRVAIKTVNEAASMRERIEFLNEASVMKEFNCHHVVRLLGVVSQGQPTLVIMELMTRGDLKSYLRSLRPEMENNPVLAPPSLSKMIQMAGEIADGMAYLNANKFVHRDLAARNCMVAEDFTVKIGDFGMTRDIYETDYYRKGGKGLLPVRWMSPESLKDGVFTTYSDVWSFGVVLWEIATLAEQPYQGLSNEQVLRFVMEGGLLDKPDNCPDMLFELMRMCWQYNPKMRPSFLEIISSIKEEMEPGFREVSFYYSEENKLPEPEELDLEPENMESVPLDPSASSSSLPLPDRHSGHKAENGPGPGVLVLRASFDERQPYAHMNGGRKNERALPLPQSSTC

Series 1
SMILES: NC(=O)c1ccc(N(C(N)=O)c2c(F)cccc2F)nc1-c1ccc(F)cc1F
Effect on: enzyme activity
Mode: inhibitor
Tested at: 0.5 µM
Relative to: control
target | remaining activity
SGK2 (Homo sapiens, UniProt Q9HBY8) | 107%
PAK6 (Homo sapiens, UniProt Q9NQU5) | 103%
CLK2 (Homo sapiens, UniProt P49760) | 86.9%
EPHA2 (Homo sapiens, UniProt P29317) | 89%
FLT1 (Homo sapiens, UniProt P17948) | 102%
JAK1 (Homo sapiens, UniProt P23458) | 98.8%
PAK1 (Homo sapiens, UniProt Q13153) | 110%
EPHA6 (Homo sapiens, UniProt Q9UF33) | 95%
CAMKK1 (Homo sapiens, UniProt Q8N5S9) | 98.9%
SIK2 (Homo sapiens, UniProt Q9H0K1) | 95.1%
RPS6KA3 (Homo sapiens, UniProt P51812) | 99.8%
SRPK1 (Homo sapiens, UniProt Q96SB4) | 99%
PRKCQ (Homo sapiens, UniProt Q04759) | 85.1%
CLK1 (Homo sapiens, UniProt P49759) | 108%
TEC (Homo sapiens, UniProt P42680) | 114%
CAMK1 (Homo sapiens, UniProt Q14012) | 98.1%
TYRO3 (Homo sapiens, UniProt Q06418) | 101%
IGF1R (Homo sapiens, UniProt P08069) | 92.3%
MAP3K20 (Homo sapiens, UniProt Q9NYL2) | 97.9%
CSNK1E (Homo sapiens, UniProt P49674) | 98.2%
CSNK1D (Homo sapiens, UniProt P48730) | 89.8%
PRKCZ (Homo sapiens, UniProt Q05513) | 89.9%
Cyclin-dependent kinase 2, with cyclin E (CDK2, Homo sapiens, UniProt P24941) | 93.1%

Series 2
SMILES: Cc1nc(Nc2ncc(C(=O)Nc3c(C)cccc3Cl)s2)cc(N2CCN(CCO)CC2)n1
Mode: inhibitor
target | setting | inhibition [%]
FYN (Homo sapiens, UniProt P06241) | 10 µM | 100
RIOK2 (Homo sapiens, UniProt Q9BVS4) | 10 µM | < 50
FGFR3 (Homo sapiens, UniProt P22607, G697C) | 10 µM | < 50
TESK1 (Homo sapiens, UniProt Q15569) | 10 µM | 100
DCLK3 (Homo sapiens, UniProt Q9C098) | 10 µM | < 50
PKMYT1 (Homo sapiens, UniProt Q99640) | 10 µM | 100
PRKAA1 (Homo sapiens, UniProt Q13131) | 1 µM | < 50
Ribosomal protein S6 kinase alpha-6, C-terminal kinase domain (RPS6KA6, Homo sapiens, UniProt Q9UK32) | 10 µM | < 50
FLT4 (Homo sapiens, UniProt P35916) | 10 µM | < 50

Series 3
Target: DNA polymerase theta, ATPase domain (POLQ, Homo sapiens, UniProt O75417)
UniProt O75417, sequence (whole entry, unmodified, looked up): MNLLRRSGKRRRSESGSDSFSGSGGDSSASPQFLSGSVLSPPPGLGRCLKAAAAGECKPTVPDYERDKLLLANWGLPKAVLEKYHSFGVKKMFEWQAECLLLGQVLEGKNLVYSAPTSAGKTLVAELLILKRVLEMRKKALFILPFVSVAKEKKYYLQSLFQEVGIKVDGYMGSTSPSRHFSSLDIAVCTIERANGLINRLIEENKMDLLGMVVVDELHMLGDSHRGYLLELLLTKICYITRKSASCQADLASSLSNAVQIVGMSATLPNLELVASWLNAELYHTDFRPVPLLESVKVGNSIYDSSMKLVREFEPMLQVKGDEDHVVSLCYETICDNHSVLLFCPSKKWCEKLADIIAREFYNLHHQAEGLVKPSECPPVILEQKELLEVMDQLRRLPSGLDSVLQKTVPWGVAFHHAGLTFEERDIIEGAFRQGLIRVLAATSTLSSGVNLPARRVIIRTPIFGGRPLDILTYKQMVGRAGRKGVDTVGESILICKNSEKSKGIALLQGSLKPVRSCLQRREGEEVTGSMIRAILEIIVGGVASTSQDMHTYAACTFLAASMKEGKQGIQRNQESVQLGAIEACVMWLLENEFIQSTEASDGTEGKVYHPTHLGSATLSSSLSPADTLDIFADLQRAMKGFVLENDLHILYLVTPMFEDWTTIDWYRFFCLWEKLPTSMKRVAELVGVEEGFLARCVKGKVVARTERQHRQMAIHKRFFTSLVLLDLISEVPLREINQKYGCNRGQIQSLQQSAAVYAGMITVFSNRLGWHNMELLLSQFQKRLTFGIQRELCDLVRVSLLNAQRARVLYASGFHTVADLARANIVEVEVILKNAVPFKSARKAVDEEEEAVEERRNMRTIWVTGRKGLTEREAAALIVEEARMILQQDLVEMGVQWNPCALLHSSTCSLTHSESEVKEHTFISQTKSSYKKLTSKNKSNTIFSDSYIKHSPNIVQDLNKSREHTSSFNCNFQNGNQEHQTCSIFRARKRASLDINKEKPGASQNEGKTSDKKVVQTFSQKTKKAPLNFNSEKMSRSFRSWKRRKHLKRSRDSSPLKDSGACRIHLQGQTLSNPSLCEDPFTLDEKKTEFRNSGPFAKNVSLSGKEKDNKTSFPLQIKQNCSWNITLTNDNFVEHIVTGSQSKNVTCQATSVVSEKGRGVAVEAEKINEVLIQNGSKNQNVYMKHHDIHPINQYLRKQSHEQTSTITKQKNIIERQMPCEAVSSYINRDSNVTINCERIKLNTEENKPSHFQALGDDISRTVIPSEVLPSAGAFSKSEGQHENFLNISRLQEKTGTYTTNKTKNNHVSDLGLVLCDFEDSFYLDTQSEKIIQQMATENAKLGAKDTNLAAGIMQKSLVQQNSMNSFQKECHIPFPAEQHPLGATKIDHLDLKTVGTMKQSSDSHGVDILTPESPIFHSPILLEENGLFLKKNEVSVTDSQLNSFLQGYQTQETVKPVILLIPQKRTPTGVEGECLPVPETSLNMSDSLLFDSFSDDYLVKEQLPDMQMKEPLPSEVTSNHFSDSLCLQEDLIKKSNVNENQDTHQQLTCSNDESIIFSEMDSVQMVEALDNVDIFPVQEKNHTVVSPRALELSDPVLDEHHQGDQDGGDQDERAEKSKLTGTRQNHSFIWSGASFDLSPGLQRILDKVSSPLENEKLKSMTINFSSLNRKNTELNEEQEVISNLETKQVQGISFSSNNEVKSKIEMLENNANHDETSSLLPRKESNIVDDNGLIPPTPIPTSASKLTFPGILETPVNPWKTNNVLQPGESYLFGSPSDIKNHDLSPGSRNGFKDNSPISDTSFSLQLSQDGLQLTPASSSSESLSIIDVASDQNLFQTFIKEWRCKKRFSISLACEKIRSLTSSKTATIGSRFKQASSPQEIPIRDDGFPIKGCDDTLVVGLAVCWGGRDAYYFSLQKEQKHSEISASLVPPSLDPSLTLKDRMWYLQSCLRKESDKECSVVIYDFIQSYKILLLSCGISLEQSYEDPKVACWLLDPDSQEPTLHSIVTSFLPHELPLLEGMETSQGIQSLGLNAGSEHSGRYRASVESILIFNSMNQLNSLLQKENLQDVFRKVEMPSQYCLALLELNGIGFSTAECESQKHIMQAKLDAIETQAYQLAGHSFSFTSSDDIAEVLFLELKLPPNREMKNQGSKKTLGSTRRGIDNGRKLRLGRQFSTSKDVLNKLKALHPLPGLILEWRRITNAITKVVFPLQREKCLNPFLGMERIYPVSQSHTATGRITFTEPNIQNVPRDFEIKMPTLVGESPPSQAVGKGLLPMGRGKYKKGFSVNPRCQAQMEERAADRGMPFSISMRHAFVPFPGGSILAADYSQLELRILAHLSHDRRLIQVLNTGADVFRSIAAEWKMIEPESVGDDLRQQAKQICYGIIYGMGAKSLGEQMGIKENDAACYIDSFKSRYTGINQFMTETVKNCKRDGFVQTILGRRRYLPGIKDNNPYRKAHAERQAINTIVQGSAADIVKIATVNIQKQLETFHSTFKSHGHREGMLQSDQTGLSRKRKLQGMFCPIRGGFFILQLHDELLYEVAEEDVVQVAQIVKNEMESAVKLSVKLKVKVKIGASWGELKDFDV
Effect on: enzyme activity
Mode: inhibitor
Tested at: 77 µM
Relative to: untreated
SMILES | remaining activity
CC(C)C[C@H](NC(=O)[C@@H](O)[C@H](N)Cc1ccccc1)C(=O)O | 101%
CC(N)C12CC3CC(CC(C3)C1)C2 (stereo not shown) | 97.8%
CC(C)[C@H](NC(=O)OCc1ccccc1)C(=O)N[C@H](C=O)Cc1ccccc1 | 93.9%
O=c1[nH]c(=O)n([C@H]2C[C@H](O)[C@@H](CO)O2)cc1C(F)(F)F | 90.6% and 102%
CCCCc1ccc2[nH]c(NC(=O)OC)nc2c1 | 96.2%
O=C(COc1ccc(Cl)cc1)N1CCN(Cc2ccc3c(c2)OCO3)CC1 | 105%
CC(C)c1nn(-c2c(Cl)cccc2Cl)c2nc(Cc3ccc(OCCO)cc3)[nH]c(=O)c12 | 112%
Nc1ccc(-c2ccc3ncc4ccc(=O)n(-c5cccc(C(F)(F)F)c5)c4c3c2)cn1 | 99.1%
COc1cc(O)c2c(c1)C(=O)c1cc(C)cc(O)c1C2=O | 103%
CC1=C(/C=C/C(C)=C/C=C/C(C)=C/C=C/C=C(C)/C=C/C=C(C)/C=C/C2=C(C)CCCC2(C)C)C(C)(C)CCC1 | 99.1%

Series 4
SMILES: Nc1cnc(N2CCc3cc(S(=O)(=O)Nc4c(F)cc(Cl)cc4F)cc(N4CCCC4=O)c32)nc1
Method: competition with immobilised ligand
Tested at: 1 µM
target | test | remaining binding [%]
ACVR2B (Homo sapiens, UniProt Q13705) | cell-free assay | 80
PIK3CB (Homo sapiens, UniProt P42338) | cell-free assay | 87
LRRK2 (Homo sapiens, UniProt Q5S007, G2019S) | cell-free assay | 81
LATS1 (Homo sapiens, UniProt O95835) | cell-free assay | 100
TEK (Homo sapiens, UniProt Q02763) | cell-free assay | 78
PIK3CA (Homo sapiens, UniProt P42336, E545A) | cell-free assay | 100
CSF1R (Homo sapiens, UniProt P07333) | cell-free assay | 100
FLT4 (Homo sapiens, UniProt P35916) | cell-free assay | 86
STK38L (Homo sapiens, UniProt Q9Y2H1) | binding | 42
PAK5 (Homo sapiens, UniProt Q9P286) | cell-free assay | 90
LIM domain kinase 1 (LIMK1, Homo sapiens, UniProt P53667) | cell-free assay | 100
STK35 (Homo sapiens, UniProt Q8TDR2) | cell-free assay | 100
FLT3 (Homo sapiens, UniProt P36888, N841I) | cell-free assay | 89
PIP5K1A (Homo sapiens, UniProt Q99755) | cell-free assay | 100
ANKK1 (Homo sapiens, UniProt Q8NFD2) | cell-free assay | 100
DAPK1 (Homo sapiens, UniProt P53355) | cell-free assay | 100
EGFR (Homo sapiens, UniProt P00533, G719C) | cell-free assay | 100
PRPF4B (Homo sapiens, UniProt Q13523) | cell-free assay | 76
FLT3 (Homo sapiens, UniProt P36888, R834Q) | cell-free assay | 77
MAPK6 (Homo sapiens, UniProt Q16659) | cell-free assay | 100
CDK4 (Homo sapiens, UniProt P11802) | cell-free assay | 97
IGF1R (Homo sapiens, UniProt P08069) | cell-free assay | 90
FES (Homo sapiens, UniProt P07332) | cell-free assay | 100
RET (Homo sapiens, UniProt P07949, V804M) | cell-free assay | 100
PIK3CA (Homo sapiens, UniProt P42336, E545K) | cell-free assay | 100

Excerpt of the above (series 1):
target | remaining activity
SGK2 (Homo sapiens, UniProt Q9HBY8) | 107%
SIK2 (Homo sapiens, UniProt Q9H0K1) | 95.1%
TEC (Homo sapiens, UniProt P42680) | 114%
EPHA6 (Homo sapiens, UniProt Q9UF33) | 95%
CLK2 (Homo sapiens, UniProt P49760) | 86.9%
FLT1 (Homo sapiens, UniProt P17948) | 102%
PAK6 (Homo sapiens, UniProt Q9NQU5) | 103%
